Measured values gathered from unrelated publications.
A part holds a random share of what one study measured. Positions count from the first letter of the parent shown.
Chain of UniProt Q6P2M8 (whole entry, looked up): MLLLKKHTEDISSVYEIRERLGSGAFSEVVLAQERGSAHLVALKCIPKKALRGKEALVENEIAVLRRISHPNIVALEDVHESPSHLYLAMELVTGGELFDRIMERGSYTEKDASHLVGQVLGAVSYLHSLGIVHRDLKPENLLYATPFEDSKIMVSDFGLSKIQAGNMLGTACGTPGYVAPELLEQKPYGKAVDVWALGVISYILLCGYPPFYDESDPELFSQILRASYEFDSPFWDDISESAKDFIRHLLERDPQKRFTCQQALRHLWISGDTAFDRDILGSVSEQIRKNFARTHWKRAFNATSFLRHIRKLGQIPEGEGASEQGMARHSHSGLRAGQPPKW

Block 1
Target: CCNB3, cyclin fold, Cln2 fusion (human)
Technique: yeast growth competition, sequencing
Medium: yeast
Notes: strong parent motif
Reference: not given
Reading: higher = stronger binding
Quantity: normalised enrichment score
Parent: viral docking peptide; KGVKRKLFAEDSS
F8M: 0.187
V3D: -0.0786
R5K F8L: 0.241
G2F: 2.16
R5Q: 0.517
V3M: 0.237
K4A: 2.04
L7M: 0.701

Block 2
Target: UDP-N-acetylglucosamine--peptide N-acetylglucosaminyltransferase 110 kDa subunit (OGT, Homo sapiens, UniProt O15294)
Chain of UniProt O15294 (whole entry, looked up): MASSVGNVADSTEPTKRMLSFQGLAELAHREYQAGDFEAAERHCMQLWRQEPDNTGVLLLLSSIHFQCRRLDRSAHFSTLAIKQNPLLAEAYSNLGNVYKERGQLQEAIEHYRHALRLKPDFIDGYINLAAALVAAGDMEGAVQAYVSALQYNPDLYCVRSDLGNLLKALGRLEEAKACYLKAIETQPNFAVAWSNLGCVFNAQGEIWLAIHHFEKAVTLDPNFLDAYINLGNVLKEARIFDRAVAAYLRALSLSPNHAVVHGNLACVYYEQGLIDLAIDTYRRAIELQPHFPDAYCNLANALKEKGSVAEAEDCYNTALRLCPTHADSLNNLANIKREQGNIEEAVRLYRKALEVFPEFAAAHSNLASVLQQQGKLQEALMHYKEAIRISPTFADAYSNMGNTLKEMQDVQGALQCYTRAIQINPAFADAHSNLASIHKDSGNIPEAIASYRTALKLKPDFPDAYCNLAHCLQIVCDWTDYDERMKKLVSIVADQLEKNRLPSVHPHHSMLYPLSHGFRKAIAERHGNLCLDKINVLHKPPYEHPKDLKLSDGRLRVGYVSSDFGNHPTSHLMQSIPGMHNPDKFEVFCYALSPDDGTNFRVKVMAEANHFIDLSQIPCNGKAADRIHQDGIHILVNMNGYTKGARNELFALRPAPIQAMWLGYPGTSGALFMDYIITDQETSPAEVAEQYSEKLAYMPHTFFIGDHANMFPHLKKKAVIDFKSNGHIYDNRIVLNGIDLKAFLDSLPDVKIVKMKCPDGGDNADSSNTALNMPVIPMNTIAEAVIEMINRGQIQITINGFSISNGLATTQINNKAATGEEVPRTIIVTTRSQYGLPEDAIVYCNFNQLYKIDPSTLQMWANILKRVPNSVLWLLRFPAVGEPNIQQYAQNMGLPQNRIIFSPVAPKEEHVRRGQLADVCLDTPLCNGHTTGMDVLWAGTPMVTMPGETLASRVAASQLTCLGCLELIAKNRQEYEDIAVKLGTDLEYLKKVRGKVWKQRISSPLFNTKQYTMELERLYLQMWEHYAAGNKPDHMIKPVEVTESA
Effect on: binding
Technique: phage display NGS
Molecule type: peptide
Tested at: concentration not given
Notes: normalized abundance
Reference: input library
Quantity: enrichment fold change
VDIGTTYMPFYQITN: 9.57
HYMSHPIHLFKGHHN: 4.26
RPITSAYQPSYQIVL: 4.38
TMQHQTHMVNHTWWH: 6.48
DDITFPPQYMMTVHR: 3.97

Block 3
Target: tungstate, free oxyanion
Technique: microfluidic competitive inhibition
Medium: in vitro, cell-free expressed
Tested at: not given
Notes: derived from inhibition constants, unchanged parent 2230 nM
Reading: lower = stronger binding
Quantity: oxyanion analog dissociation constant
Parent: PafA, mature enzyme, eGFP fusion (Elizabethkingia meningoseptica, UniProt Q9KJX5); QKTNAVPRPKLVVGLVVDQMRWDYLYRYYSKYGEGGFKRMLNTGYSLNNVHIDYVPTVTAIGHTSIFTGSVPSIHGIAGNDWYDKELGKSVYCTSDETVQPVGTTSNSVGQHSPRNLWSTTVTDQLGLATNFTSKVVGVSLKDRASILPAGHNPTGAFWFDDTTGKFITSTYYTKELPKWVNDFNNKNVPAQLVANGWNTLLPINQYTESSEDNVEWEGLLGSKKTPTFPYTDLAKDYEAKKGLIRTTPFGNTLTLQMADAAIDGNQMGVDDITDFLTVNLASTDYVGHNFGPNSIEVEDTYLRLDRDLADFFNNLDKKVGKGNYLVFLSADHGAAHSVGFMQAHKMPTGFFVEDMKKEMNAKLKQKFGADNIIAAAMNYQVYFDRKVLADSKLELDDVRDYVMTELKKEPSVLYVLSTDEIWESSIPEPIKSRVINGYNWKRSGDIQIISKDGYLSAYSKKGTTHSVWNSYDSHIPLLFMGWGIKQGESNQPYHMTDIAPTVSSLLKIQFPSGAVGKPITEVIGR
D453G: 1.92 µM
D498V: 1.53 µM
R27V: 2.16 µM
D23G: 1.32 µM
N470G: 1.62 µM
L414G: 0.656 µM
M356G: 2.28 µM
I168V: 2.3 µM

Mixed results
CCn1cnc2c(Nc3cccc(Cl)c3)nc(N[C@H]3CCCC[C@H]3N)nc21  remaining activity (Calcium/calmodulin-dependent protein kinase type 1B (PNCK, Homo sapiens, UniProt Q6P2M8); enzyme activity, inhibitor; 0.5 µM; reference: control): 98.5%

A few entries again (block 3):
M356G: 2.28 µM
D498V: 1.53 µM
